Assay results of several laboratories.
± gives the spread as reported.
CNR1: Cannabinoid receptor 1 (CNR1, Homo sapiens, UniProt P21554)
Chain of UniProt P21554 (whole entry, unmodified, looked up): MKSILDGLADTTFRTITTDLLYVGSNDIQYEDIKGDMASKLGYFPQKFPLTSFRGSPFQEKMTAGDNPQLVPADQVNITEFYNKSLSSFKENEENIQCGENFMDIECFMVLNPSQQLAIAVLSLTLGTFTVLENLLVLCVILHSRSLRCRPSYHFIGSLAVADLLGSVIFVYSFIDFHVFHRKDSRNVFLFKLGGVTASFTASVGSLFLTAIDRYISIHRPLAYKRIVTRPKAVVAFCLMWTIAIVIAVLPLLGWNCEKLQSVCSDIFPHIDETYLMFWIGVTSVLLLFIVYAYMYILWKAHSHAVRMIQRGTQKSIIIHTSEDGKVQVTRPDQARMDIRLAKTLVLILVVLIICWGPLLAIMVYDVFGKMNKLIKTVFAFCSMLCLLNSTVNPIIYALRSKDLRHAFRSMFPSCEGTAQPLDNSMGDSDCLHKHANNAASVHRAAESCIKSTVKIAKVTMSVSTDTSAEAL
4'-phosphopantetheinyl transferase PptT: 4'-phosphopantetheinyl transferase PptT (Mycobacterium tuberculosis, UniProt O33336)
Chain of UniProt O33336 (whole entry, looked up): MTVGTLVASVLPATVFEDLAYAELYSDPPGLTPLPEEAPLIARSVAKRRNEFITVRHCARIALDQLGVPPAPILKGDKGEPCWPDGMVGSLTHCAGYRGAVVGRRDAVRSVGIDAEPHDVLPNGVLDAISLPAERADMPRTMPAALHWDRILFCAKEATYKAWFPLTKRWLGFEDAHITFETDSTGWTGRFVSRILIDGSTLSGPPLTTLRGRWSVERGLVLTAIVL
dppA: dppA (Mycobacterium tuberculosis, UniProt I6X811)
USP14: Ubiquitin carboxyl-terminal hydrolase 14 (USP14, Homo sapiens, UniProt P54578)
Chain of UniProt P54578 (whole entry, looked up): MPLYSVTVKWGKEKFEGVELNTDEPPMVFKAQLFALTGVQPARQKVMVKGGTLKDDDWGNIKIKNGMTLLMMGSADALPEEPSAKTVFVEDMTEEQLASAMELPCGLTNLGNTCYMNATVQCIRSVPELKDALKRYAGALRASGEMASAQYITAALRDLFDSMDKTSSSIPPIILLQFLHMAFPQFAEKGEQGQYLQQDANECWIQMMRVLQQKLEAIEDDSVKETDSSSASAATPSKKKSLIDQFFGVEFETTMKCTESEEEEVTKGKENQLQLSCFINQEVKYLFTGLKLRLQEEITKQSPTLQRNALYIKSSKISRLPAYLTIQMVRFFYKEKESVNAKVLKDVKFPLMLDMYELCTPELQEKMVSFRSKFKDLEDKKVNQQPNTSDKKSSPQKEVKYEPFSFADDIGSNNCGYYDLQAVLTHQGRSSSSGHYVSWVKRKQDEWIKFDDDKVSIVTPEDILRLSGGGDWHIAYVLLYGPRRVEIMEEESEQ
CNR1 with Gz: Cannabinoid receptor 1, with Gz (CNR1, Homo sapiens, UniProt P21554)
Chain of UniProt P16389 (whole entry, looked up): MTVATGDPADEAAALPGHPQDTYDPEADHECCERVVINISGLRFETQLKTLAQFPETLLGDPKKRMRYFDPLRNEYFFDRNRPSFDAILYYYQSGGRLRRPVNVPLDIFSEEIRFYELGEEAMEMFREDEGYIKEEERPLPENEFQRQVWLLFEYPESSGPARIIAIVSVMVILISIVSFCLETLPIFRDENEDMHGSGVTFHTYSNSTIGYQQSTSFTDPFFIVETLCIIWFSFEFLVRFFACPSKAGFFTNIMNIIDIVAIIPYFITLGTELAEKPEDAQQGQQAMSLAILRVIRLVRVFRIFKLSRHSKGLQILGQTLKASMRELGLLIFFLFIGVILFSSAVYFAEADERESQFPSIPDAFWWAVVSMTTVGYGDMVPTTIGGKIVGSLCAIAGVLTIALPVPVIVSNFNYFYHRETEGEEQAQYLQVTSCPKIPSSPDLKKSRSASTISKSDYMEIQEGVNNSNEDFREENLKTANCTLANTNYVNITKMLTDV
Chain of UniProt P30989 (whole entry, looked up): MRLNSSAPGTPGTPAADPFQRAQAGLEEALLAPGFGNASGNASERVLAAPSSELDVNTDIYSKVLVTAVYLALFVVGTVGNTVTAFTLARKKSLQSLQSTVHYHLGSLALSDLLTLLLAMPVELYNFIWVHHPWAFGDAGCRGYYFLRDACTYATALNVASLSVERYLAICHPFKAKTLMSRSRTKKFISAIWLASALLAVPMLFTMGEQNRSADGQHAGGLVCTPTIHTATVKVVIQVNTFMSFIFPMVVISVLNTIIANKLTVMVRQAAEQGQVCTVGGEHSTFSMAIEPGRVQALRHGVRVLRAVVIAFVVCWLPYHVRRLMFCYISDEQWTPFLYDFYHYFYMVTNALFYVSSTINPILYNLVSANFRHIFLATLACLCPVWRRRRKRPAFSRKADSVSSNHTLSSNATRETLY
Chain of UniProt P9WG47 (whole entry, looked up): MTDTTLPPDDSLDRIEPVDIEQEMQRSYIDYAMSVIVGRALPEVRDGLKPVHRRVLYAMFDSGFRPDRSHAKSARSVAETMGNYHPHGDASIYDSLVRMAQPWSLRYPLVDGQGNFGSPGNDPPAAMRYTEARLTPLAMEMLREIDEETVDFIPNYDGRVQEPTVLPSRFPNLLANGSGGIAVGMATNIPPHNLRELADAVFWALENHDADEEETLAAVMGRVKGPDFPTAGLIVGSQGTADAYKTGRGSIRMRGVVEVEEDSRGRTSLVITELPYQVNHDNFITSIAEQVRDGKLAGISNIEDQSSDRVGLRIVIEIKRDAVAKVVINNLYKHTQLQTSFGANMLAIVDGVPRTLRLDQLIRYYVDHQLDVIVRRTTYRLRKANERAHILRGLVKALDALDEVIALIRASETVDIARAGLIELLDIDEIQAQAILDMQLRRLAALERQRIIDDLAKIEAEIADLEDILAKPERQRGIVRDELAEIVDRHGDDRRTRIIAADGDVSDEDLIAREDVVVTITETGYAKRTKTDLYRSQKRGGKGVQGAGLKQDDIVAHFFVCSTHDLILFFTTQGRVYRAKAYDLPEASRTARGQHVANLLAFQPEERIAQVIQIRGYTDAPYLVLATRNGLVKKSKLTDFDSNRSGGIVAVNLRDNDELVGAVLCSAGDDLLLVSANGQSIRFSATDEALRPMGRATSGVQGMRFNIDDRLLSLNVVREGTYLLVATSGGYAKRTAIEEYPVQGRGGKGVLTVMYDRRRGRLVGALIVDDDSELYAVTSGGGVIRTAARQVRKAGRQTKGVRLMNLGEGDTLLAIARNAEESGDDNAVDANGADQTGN
Chain of UniProt P55212 (whole entry, looked up): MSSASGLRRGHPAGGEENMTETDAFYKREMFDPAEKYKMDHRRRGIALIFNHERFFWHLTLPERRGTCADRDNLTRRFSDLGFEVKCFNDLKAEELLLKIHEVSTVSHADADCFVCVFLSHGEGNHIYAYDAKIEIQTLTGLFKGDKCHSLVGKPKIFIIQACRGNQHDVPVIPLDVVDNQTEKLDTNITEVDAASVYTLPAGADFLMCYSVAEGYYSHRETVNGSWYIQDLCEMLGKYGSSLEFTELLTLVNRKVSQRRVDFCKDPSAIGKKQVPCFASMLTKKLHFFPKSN
Chain of UniProt Q9BWU1 (whole entry, looked up): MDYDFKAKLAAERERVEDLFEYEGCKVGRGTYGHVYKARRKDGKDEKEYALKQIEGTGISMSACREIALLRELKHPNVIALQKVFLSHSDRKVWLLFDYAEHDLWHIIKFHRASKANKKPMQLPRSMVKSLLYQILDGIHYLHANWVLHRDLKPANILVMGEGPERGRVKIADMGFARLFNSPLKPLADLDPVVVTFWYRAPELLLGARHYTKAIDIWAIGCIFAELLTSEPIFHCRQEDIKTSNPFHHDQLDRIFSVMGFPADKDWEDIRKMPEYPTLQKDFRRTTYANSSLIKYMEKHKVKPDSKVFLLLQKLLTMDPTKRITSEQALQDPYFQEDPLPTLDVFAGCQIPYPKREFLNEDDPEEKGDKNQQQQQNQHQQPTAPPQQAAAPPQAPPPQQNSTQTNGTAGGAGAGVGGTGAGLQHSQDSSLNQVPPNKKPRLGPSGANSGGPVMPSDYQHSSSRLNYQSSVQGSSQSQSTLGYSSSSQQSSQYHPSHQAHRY

For `CCCCCn1cc(C(=O)c2ccc3ccccc3c2)c2ccccc21`, the Emax was 71.2 ± 5.8% (CNR1; GαoA activation, agonist, BRET; reference: reference agonist).
For `Cc1nc2ccc(CN(C)c3sc(C(=O)NC(CCC(=O)O)C(=O)O)cc3F)cc2c(=O)[nH]1` (stereo not shown), the Hill slope was 1.3 (4'-phosphopantetheinyl transferase PptT; enzyme activity, inhibitor, fluorescence polarisation).
With `CC(C)[C@H](NC(=O)[C@@H](NC(=O)[C@@H](N)CC(=O)O)C(C)C)C(=O)O` the kon was 2.98 ± 2000 M⁻¹ s⁻¹ (dppA; pH 7.4).
For `C#CCN(Cc1ccc2nc(C)[nH]c(=O)c2c1)c1ccc(C(=O)NC(CCC(=O)O)C(=O)O)s1` (stereo not shown), the Hill slope was 1.2 (4'-phosphopantetheinyl transferase PptT; enzyme activity, inhibitor, fluorescence polarisation).
`CC(C)(C)N1C(=O)NC(=O)C(=Cc2ccccc2Cl)C1=O` has an inhibition of 30% (USP14; enzyme activity, inhibitor; 17 µM).
For `CC(C)[C@H](NC(=O)[C@H](CCCCN)NC(=O)[C@@H](N)CCCCN)C(=O)O`, the kon was 2.99 ± 3000 M⁻¹ s⁻¹ (dppA; pH 7.4).
The Hill slope of `C#CCN(Cc1cc(Cl)c2nc(C)[nH]c(=O)c2c1)c1ccc(C(=O)N[C@H](CCC(=O)O)C(=O)O)cc1` is reported as 1.6 (4'-phosphopantetheinyl transferase PptT; enzyme activity, inhibitor, fluorescence polarisation).
With `CCCCCn1cc(C(=O)c2cccc3c2CC(C)(C)C3)c2ccccc21` the Emax was 119 ± 8% (CNR1; Gαi1 activation, agonist, BRET; reference: reference agonist).
`C=CCN(Cc1ccc2nc(C)[nH]c(=O)c2c1)c1ccc(C(=O)N[C@H](CCC(=O)O)C(=O)O)s1` has a Hill slope of 1.3 (4'-phosphopantetheinyl transferase PptT; enzyme activity, inhibitor, fluorescence polarisation).
For `CC(C)CC(C(=O)N1CC2(CC1C#N)C(=O)Nc1ccccc12)N(C)C(=O)c1cc2c(F)cc(F)c(F)c2[nH]1` (stereo not shown), the Hill slope was -1.64 (Caspase-6 (CASP6, Homo sapiens, UniProt P55212)).
`COc1ccc2nccc(CC[C@H]3OC[C@H](NC(=O)c4ccc5c(c4)NC(=O)CO5)CO3)c2c1` — result for “maximal single-stranded DNA breaks”: about 15% (DNA gyrase subunit A, with GyrB (Mycobacterium tuberculosis, UniProt P9WG47); DNA cleavage; concentration not given, 10 min, 37 °C, added: gyrase 100 nM).
For `COc1ccc(CC2C(=O)NC(=O)N(c3cccc(Cl)c3)C2=O)cc1` (stereo not shown), the inhibition was 28% (USP14; enzyme activity, inhibitor; 17 µM).
For `C#CCN(Cc1ccc2nc(C)[nH]c(=O)c2c1)c1ccc(C(=O)N[C@@H](CC(=O)NCC(=O)O)C(=O)O)cc1`, the Hill slope was 0.9 (4'-phosphopantetheinyl transferase PptT; enzyme activity, inhibitor, fluorescence polarisation).
With `CC[C@H](C)[C@@H]1NC(=O)[C@@H](NC(=O)CNC(=O)[C@@H](N)CCCCN)CSSC[C@@H]2NC(=O)[C@@H]3CSSC[C@H](NC(=O)[C@H](CCC(N)=O)NC(=O)[C@H](CC(C)C)NC(=O)[C@@H]4CCCN4C(=O)[C@H](CCCNC(=N)N)NC2=O)C(=O)N[C@@H](CCCCN)C(=O)NCC(=O)N2CCC[C@H]2C(=O)N[C@@H](CO)C(=O)N2CCC[C@H]2C(=O)N[C@@H](CCCCN)C(=O)N[C@@H](CCC(N)=O)C(=O)N[C@@H](CCCCN)C(=O)N[C@@H](CCCCN)C(=O)N[C@H](C(=O)N[C@H](C(=O)N[C@@H](CCCCN)C(=O)N[C@H](C(=O)O)C(C)C)[C@@H](C)O)CSSC[C@H](NC(=O)[C@H](Cc2c[nH]c4ccccc24)NC(=O)[C@H](CCCCN)NC(=O)CNC(=O)[C@H](CCC(=O)O)NC(=O)[C@H](CCCCN)NC1=O)C(=O)N1CCC[C@H]1C(=O)N[C@@H](CCCCN)C(=O)N[C@@H]([C@@H](C)O)C(=O)N[C@@H](C)C(=O)N1CCC[C@H]1C(=O)N3` the inhibition was about 50% (KCNA2 (Homo sapiens, UniProt P16389); potassium current, whole-cell patch clamp; 0.3 µM).
The Hill slope of `C#CCN(Cc1ccc2nc(C)[nH]c(=O)c2c1)c1ccc(C(=O)NC(CCC(=O)O)C(=O)O)c(O)c1` (stereo not shown) is reported as 1.2 (4'-phosphopantetheinyl transferase PptT; enzyme activity, inhibitor, fluorescence polarisation).
The kon of `CC(C)[C@H](N)C(=O)N[C@H](C(=O)N[C@H](C(=O)N[C@H](C(=O)O)C(C)C)C(C)C)C(C)C` is reported as 5.55 ± 20000 M⁻¹ s⁻¹ (dppA; pH 7.4).
The remaining binding of `Nc1ccc(/C=C/C(=O)N2CCc3c(oc4c(-c5ccc(F)cc5)cc(-c5ccc(C(=O)N6CCC(F)(F)CC6)cn5)cc34)C2)cn1` is reported as 98% (CDK19 (Homo sapiens, UniProt Q9BWU1); KINOMEscan; 1 µM).
For `Cc1sc2c(c1C)C(c1ccc(Cl)cc1)=NC(CC(=O)OC(C)(C)C)c1nnc(C)n1-2` (stereo not shown), the inhibition was -4% (NTSR1 (Homo sapiens, UniProt P30989); ligand displacement, radioligand; 1 µM).
For `C=CCN(Cc1ccc2nc(C)[nH]c(=O)c2c1)c1cnc(C(=O)NC(CCC(=O)O)C(=O)O)s1` (stereo not shown), the Hill slope was 1.2 (4'-phosphopantetheinyl transferase PptT; enzyme activity, inhibitor, fluorescence polarisation).
With `COc1ccccc1C(C[N+](=O)[O-])c1c(-c2ccccc2)[nH]c2ccccc12` (stereo not shown) the Emax was 24.8 ± 1.55% (CNR1 with Gz; Gz dissociation, agonist, BRET).
`CC[C@H](C)[C@@H]1NC(=O)CNC(=O)[C@@H]2Cc3c([nH]c4cc(O)ccc34)[S@+]([O-])C[C@H](NC(=O)CNC1=O)C(=O)N[C@@H](CC(N)=O)C(=O)N1C[C@H](O)C[C@H]1C(=O)N[C@@H]([C@@H](C)[C@@H](O)CO)C(=O)N2` has a transcription activity of 85 ± 2% (DNA-directed RNA polymerase II subunit RPB1 (Homo sapiens, UniProt P24928); HeLa nuclear extract; 1.0 nM, 60 min).
`O=[N+]([O-])CC(c1ccco1)c1c(-c2ccccc2)[nH]c2ccccc12` (stereo not shown) has an Emax of 109 ± 9.32% (CNR1 (Homo sapiens, UniProt P21554, I245L); Gαi1-γ2 dissociation, BRET).
With `C#CCN(Cc1ccc2nc(C)[nH]c(=O)c2c1)c1cnc(C(=O)NC(CCC(=O)O)C(=O)O)s1` (stereo not shown) the Hill slope was 1.2 (4'-phosphopantetheinyl transferase PptT; enzyme activity, inhibitor, fluorescence polarisation).
For `Cc1ccc2c(C(C[N+](=O)[O-])c3cccs3)c(-c3ccccc3)[nH]c2c1` (stereo not shown), the Emax was 49.7 ± 0.99% (CNR1 with Gz; Gz dissociation, agonist, BRET).
The kon of `CC(C)[C@H](N)C(=O)N[C@H](C(=O)N[C@@H](CC(=O)O)C(=O)O)C(C)C` is reported as 1.1 ± 10000 M⁻¹ s⁻¹ (dppA; pH 7.4).

Excerpt of the above:
For `Cc1nc2ccc(CN(C)c3sc(C(=O)NC(CCC(=O)O)C(=O)O)cc3F)cc2c(=O)[nH]1` (stereo not shown), the Hill slope was 1.3 (4'-phosphopantetheinyl transferase PptT; enzyme activity, inhibitor, fluorescence polarisation).
With `CC(C)[C@H](NC(=O)[C@@H](NC(=O)[C@@H](N)CC(=O)O)C(C)C)C(=O)O` the kon was 2.98 ± 2000 M⁻¹ s⁻¹ (dppA; pH 7.4).
For `C#CCN(Cc1ccc2nc(C)[nH]c(=O)c2c1)c1ccc(C(=O)NC(CCC(=O)O)C(=O)O)s1` (stereo not shown), the Hill slope was 1.2 (4'-phosphopantetheinyl transferase PptT; enzyme activity, inhibitor, fluorescence polarisation).
